# Experimental data from different studies.
# Each line is one published result; not all experiments were run side by side. Numbers after ± are the reported error.
SMILES,assay,test system,conditions,half-life
CC(C)C[C@H](NC(=O)[C@H](Cc1cccc2ccccc12)NC(=O)[C@H](CNC(=O)c1ccc(F)nc1)NC(=O)[C@H](CO)NC(=O)C1CCNCC1)C(=O)N[C@@H](C(=O)N1CCC[C@H]1C(=O)N[C@H](C(N)=O)[C@@H](C)O)[C@H](C)O,chemical stability,"male human, serum","1 mM, pH 7.4",> 24 h
Oc1ccc2ccc3c4ccccc4cc4ccc1c2c43,UPLC-AMS,"human, plasma","oral, 25 ng of [14C]-BaP",14 ± 20.5 h
CCCCCCCCCCCCCCCC(=O)NCCCC[C@H](NC(=O)[C@H](CCC(=O)O)NC(=O)[C@H](CCC(=O)O)NC(=O)[C@H](Cc1ccc(O)cc1)NC(=O)[C@H](CCC(=O)O)NC(=O)CCCCCNC(=S)Nc1ccc2c(c1)C(=O)OC21c2ccc(O)cc2Oc2cc(O)ccc21)C(=O)N[C@@H](Cc1ccc(O)cc1)C(=O)N[C@@H](CCC(=O)O)C(=O)NCC(=O)NCC(=O)NCC(=O)NCC(=O)N[C@@H](CO)C(=O)NCC(=O)NCC(=O)NCC(=O)NCC(=O)N[C@@H](CO)C(=O)N[C@@H](Cc1ccccc1)C(=O)N[C@@H](CC(N)=O)C(=O)N1CCC[C@H]1C(=O)N[C@@H](CCCNC(=N)N)C(=O)N[C@@H](Cc1c[nH]cn1)C(=O)NC(C)(C)C(=O)N[C@@H](CCC(=O)O)C(=O)NCC(=O)N[C@H](C(=O)N[C@@H](Cc1ccccc1)C(=O)N[C@H](C(=O)N[C@@H](CO)C(=O)N[C@@H](CC(=O)O)C(=O)N[C@H](C(=O)N[C@@H](CO)C(=O)N[C@@H](CO)C(=O)N[C@@H](Cc1ccc(O)cc1)C(=O)N[C@@H](CC(C)C)C(=O)N[C@@H](CCC(=O)O)C(=O)NCC(=O)N[C@@H](CCC(N)=O)C(=O)N[C@@H](C)C(=O)N[C@@H](C)C(=O)N[C@@H](CCCCN)C(=O)N[C@@H](CCC(=O)O)C(=O)N[C@@H](Cc1ccccc1)C(=O)N[C@H](C(=O)N[C@@H](C)C(=O)N[C@@H](Cc1c[nH]c2ccccc12)C(=O)N[C@@H](CC(C)C)C(=O)N[C@H](C(=O)N[C@@H](CCCCN)C(=O)NCC(=O)N[C@@H](CCCNC(=N)N)C(=O)NCC(=O)O)C(C)C)[C@@H](C)CC)C(C)C)[C@@H](C)O)[C@@H](C)O,measured: released GLP-1 analogue,"rhesus monkey, plasma","subcutaneous, 10 nmol/kg",74 h
O=c1[nH]c(Cc2ccccn2)nc2c1cnn2C1CCOCC1,,"healthy men, extensive metabolizers, plasma","oral, 5 mg single dose, tablet, geometric mean",1.16 h
COc1ccc(C[C@@H]2NC(=O)[C@H]([C@@H](C)O)NC(=O)[C@@H]3[C@@H]4CCN3C(=O)[C@@H]3Cc5cn(c6ccc(F)cc56)CCCCCCN(Cc5ccc(cc5)CCNC(=O)[C@]5(C)CCCN5C2=O)C(=O)CCC(=O)N[C@@H](C)C(=O)N[C@H](CNC(=O)CCCCC[N+](C)(C)C)C(=O)N[C@@H](Cc2cccc(c2)CNC(=O)CO4)C(=O)N3)cc1,,"healthy fasted humans, plasma","oral, 300 mg single dose, geometric mean, with: Labrasol 1800 mg",130 h
O[C@H]1CCCN[C@@H]1CCCn1cnc2c(Cl)c(Cl)ccc21,,"human, plasma","oral, 300 mg, single dose, healthy volunteers",8.33 h
C[C@@H](O)[C@H](NC(=O)[C@@H]1CCCN1C(=O)[C@H](CO)NC(=O)[C@H](CC1CCCCC1)NC(=O)[C@H](Cc1cccc2ccccc12)NC(=O)[C@H](CNC(=O)c1ccc(F)nc1)NC(=O)[C@H](CO)NC(=O)C1CCNCC1)C(N)=O,chemical stability,"male human, serum","1 mM, pH 7.4",2.4 h
CCc1nnc(NS(=O)(=O)c2ccc(NC(=S)NC(=O)/C=C/c3ccc(F)cc3)cc2)s1,,"female C57BL/6 mouse, plasma",,2.7 h
CCCC[C@H](NC(=O)[C@H](Cc1cccc2ccccc12)NC(=O)[C@H](CNC(=O)c1ccc(F)nc1)NC(=O)[C@H](CO)NC(=O)C1CCNCC1)C(=O)N[C@@H](CO)C(=O)N1CCC[C@H]1C(=O)N[C@H](C(N)=O)[C@@H](C)O,chemical stability,"male human, serum","1 mM, pH 7.4",1.7 h
CC[C@H](C)[C@H](NC(=O)[C@H](CCCNC(=N)N)NC(=O)[C@H](CC(C)C)NC(=O)[C@@H](N)Cc1ccccc1)C(=O)N[C@@H](CCCNC(=N)N)C(=O)N1CCC[C@H]1C(=O)N[C@@H](CCCCN)C(=O)O,,rat plasma,with: chymostatin 100 µM,1 h
Cn1ccc2cc(-c3cnc4ccc(C(=O)N5CCCCC5)cc4n3)ccc2c1=O,,"ICR/CD-1 mouse, female, mouse liver S9 fraction","2 µM, pH 7.5",> 4 h
CC(C)C[C@H](NC(=O)[C@H](Cc1cccc2ccccc12)NC(=O)[C@H](CNC(=O)c1ccc(F)nc1)NC(=O)[C@H](CO)NC(=O)C1CCNCC1)C(=O)N[C@H](CO)C(=O)N1CCC[C@H]1C(=O)N[C@H](C(N)=O)[C@@H](C)O,chemical stability,"male human, serum","1 mM, pH 7.4",> 24 h
CCCCCOc1ccc(-c2cc(-c3ccc(C(=O)N[C@H]4C[C@@H](O)[C@@H](O)NC(=O)[C@@H]5[C@@H](O)[C@@H](C)CN5C(=O)[C@H]([C@H](O)CC(N)=O)NC(=O)[C@H]([C@H](O)[C@@H](O)c5ccc(O)c(OS(=O)(=O)O)c5)NC(=O)[C@@H]5C[C@@H](O)CN5C(=O)[C@H]([C@@H](C)O)NC4=O)cc3)no2)cc1,,"young infants under 1000 g, plasma","intravenous infusion, 10 mg/kg/day, day 4, median, 1 h infusion, repeat dosing",10.4 h
CC[C@H](NC(=O)[C@H](CC(C)C)NC(=O)[C@H](Cc1cccc2ccccc12)NC(=O)[C@H](CNC(=O)c1ccc(F)nc1)NC(=O)[C@H](CO)NC(=O)C1CCNCC1)C(=O)N1CCC[C@H]1C(=O)N[C@H](C(N)=O)[C@@H](C)O,chemical stability,"male human, serum","1 mM, pH 7.4",> 24 h
C#CCn1c(C)c(C(=O)C(=O)NC(C)(C)C#C)c(C)c1C(=O)Nc1ccc(F)c(F)c1,,mouse liver microsomes,"1 µM, pH 7.4, with: ritonavir 1 µM",0.475 h

# Excerpt of the above:
SMILES,assay,test system,conditions,half-life
CCc1nnc(NS(=O)(=O)c2ccc(NC(=S)NC(=O)/C=C/c3ccc(F)cc3)cc2)s1,,"female C57BL/6 mouse, plasma",,2.7 h
CC(C)C[C@H](NC(=O)[C@H](Cc1cccc2ccccc12)NC(=O)[C@H](CNC(=O)c1ccc(F)nc1)NC(=O)[C@H](CO)NC(=O)C1CCNCC1)C(=O)N[C@@H](C(=O)N1CCC[C@H]1C(=O)N[C@H](C(N)=O)[C@@H](C)O)[C@H](C)O,chemical stability,"male human, serum","1 mM, pH 7.4",> 24 h
